# Experimental data from different studies.
# Lines come from different studies, so protocols differ.
# Cell line: HCT-15
Structure (SMILES),assay,test system,conditions,scale,quantity,value
CCN(CC)c1ccc(C=NNC(=O)CSc2nc3ccccc3c(=O)n2Cc2ccc(S(N)(=O)=O)cc2)c(O)c1,NCI five-dose screen,,,,TGI,> 100 µM
CCn1cc(-c2cc(Cn3ccoc3=N)cc3c2CCN([C@@H](C)c2cc(OC)ccn2)C3=O)c(C(F)(F)F)n1,"cell growth, inhibitor",,120 h,,EC50,3.3 µM
O=C(Nc1nnc2n3c(nc(-c4ccc(Cl)cc4)c1-2)SCC3=O)c1ccccc1,SRB,,"10 µM, NCI60 single-dose screen, colon cancer",reference: untreated,cell growth,101%
Cc1cc(C)n(C(=S)[S][Au][PH](CCCCCC[PH]([Au][S]C(=S)n2nc(C)cc2C)(c2ccccc2)c2ccccc2)(c2ccccc2)c2ccccc2)n1,"cell growth, NCI-60 screen",,colon cancer,,log10 TGI,> -4
O=C1NC(c2ccccc2)(c2ccccc2)C(=O)N1Cc1cn(-c2c3ccccc3nc3ccccc23)nn1,NCI60 single-dose screen,,10 µM,,growth percentage,59.9%
CCOc1ccc(-c2nc3cc(-c4nc5cc(N6CCN(C)CC6)ccc5[nH]4)ccc3[nH]2)cc1OCC,SRB,,"10 µM, 48 h",,growth percent,63.7%
C#C[C@@]1(O)[C@@H](CO)O[C@@H](n2ccc3c(N)ncnc32)[C@@H]1O,SRB,,NCI-60 screen,,TGI,4.62 µM
Cc1cc(=O)[nH]c(=O)n1Cc1cn(-c2cc3ccccc3oc2=O)nn1,NCI60 single-dose screen,,10 µM,,growth percentage,105%
Cc1n[nH]c2nc(-c3ccc(Cl)cc3)c3c(NC(=O)c4ccccc4)nnc-3n12,SRB,,"10 µM, NCI60 single-dose screen, colon cancer",reference: untreated,cell growth,90.8%
C#C[C@@]1(O)[C@@H](CO)O[C@@H](n2cc(F)c3c(N)ncnc32)[C@@H]1O,SRB,,NCI-60 screen,,TGI,3.19 µM
O=C1NCCc2[nH]c(-c3ccncc3)cc21,MTS,colon cancer,,,IC50,2.54 µM
CCCCN1CCN(c2ccc3[nH]c(-c4ccc5[nH]c(-c6ccc(OCC)cc6)nc5c4)nc3c2)CC1,SRB,,"10 µM, 48 h",,growth percent,16.6%
CSc1nc(-c2ccc(Cl)cc2)c2c(NC(=O)c3ccccc3)nnc-2[nH]1,SRB,,"10 µM, NCI60 single-dose screen, colon cancer",reference: untreated,cell growth,100%
CCCCN1CCN(c2ccc3[nH]c(-c4ccc5[nH]c(-c6ccc(C(F)(F)F)cc6)nc5c4)nc3c2)CC1,SRB,,"10 µM, 48 h",,growth percent,-79%
O=c1ccn(Cc2cn(-c3c4ccccc4nc4ccccc34)nn2)c(=O)[nH]1,NCI60 single-dose screen,,10 µM,,growth percentage,91.5%
O=C(Nc1nnc2[nH]c(=S)[nH]c(-c3ccc(Cl)cc3)c1-2)c1ccccc1,SRB,,"10 µM, NCI60 single-dose screen, colon cancer",reference: untreated,cell growth,97.8%
CCCN1CCN(c2ccc3nc(-c4ccc5nc(-c6cc(OC)ccc6OC)[nH]c5c4)[nH]c3c2)CC1,SRB,,"10 µM, 48 h",,growth percent,62.1%
C#C[C@@]1(O)[C@@H](CO)O[C@@H](n2cc(Cl)c3c(N)ncnc32)[C@@H]1O,SRB,,NCI-60 screen,,TGI,> 100 µM
CCCCN1CCN(c2ccc3nc(-c4ccc5nc(-c6cc(OC)ccc6OC)[nH]c5c4)[nH]c3c2)CC1,SRB,,"10 µM, 48 h",,growth percent,81.7%
O=C1NC(c2ccccc2)(c2ccccc2)C(=O)N1Cc1cn(-c2cc3ccccc3oc2=O)nn1,NCI60 single-dose screen,,10 µM,,growth percentage,92.7%
Cc1cc(C)n(-c2nc(-c3ccc(Cl)cc3)c3c(NC(=O)c4ccccc4)nnc-3[nH]2)n1,SRB,,"10 µM, NCI60 single-dose screen, colon cancer",reference: untreated,cell growth,96%
CCCN1CCN(c2ccc3[nH]c(-c4ccc5[nH]c(-c6ccc(OCC)c(OCC)c6)nc5c4)nc3c2)CC1,SRB,,"10 µM, 48 h",,growth percent,5.97%

# Some of these lines once more:
Structure (SMILES),assay,test system,conditions,scale,quantity,value
Cc1cc(C)n(C(=S)[S][Au][PH](CCCCCC[PH]([Au][S]C(=S)n2nc(C)cc2C)(c2ccccc2)c2ccccc2)(c2ccccc2)c2ccccc2)n1,"cell growth, NCI-60 screen",,colon cancer,,log10 TGI,> -4
O=C(Nc1nnc2n3c(nc(-c4ccc(Cl)cc4)c1-2)SCC3=O)c1ccccc1,SRB,,"10 µM, NCI60 single-dose screen, colon cancer",reference: untreated,cell growth,101%
